Published values of several laboratories.
Lines come from different studies, so protocols differ. Values joined by “and” are separate records of one study, mostly repeats; a detail may differ. ± marks the error that the study gave.
FFAR4: Free fatty acid receptor 4 (FFAR4, Homo sapiens, UniProt Q5NUL3)
GAP50: Glideosome-associated protein 50 (GAP50, Plasmodium falciparum, UniProt Q8I2X3)
TRPM8: Transient receptor potential cation channel subfamily M member 8 (TRPM8, Homo sapiens, UniProt Q7Z2W7)
NADH dehydrogenase [ubiquinone] iron-sulfur protein 7, mitochondrial/NADH dehydrogenase [ubiquinone] iron-sulfur protein 2, mitochondrial/MT-ND1: NADH dehydrogenase [ubiquinone] iron-sulfur protein 7, mitochondrial/NADH dehydrogenase [ubiquinone] iron-sulfur protein 2, mitochondrial/MT-ND1 (Homo sapiens, UniProt O75251+O75306+P03886)
PDE1C isoform PDE1C2: Dual specificity calcium/calmodulin-dependent 3',5'-cyclic nucleotide phosphodiesterase 1C, isoform PDE1C2 (PDE1C, Homo sapiens, UniProt Q14123)
TOP2A: DNA topoisomerase 2-alpha (TOP2A, Homo sapiens, UniProt P11388)
T1: riboswitch RNA yjdF aptamer (Bacillus subtilis); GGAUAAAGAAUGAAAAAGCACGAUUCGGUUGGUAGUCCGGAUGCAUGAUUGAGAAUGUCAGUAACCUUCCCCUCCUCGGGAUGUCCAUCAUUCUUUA

Structure (SMILES)	target	assay	test system	setting	scale	endpoint	value
CCCCC(CC)CNc1cc(=O)[nH]c(=O)[nH]1 (racemic)	FFAR4	antagonist, β-arrestin recruitment	CHO cells	10 µM		inhibition	-13 ± 7%
Cc1ccc(S(=O)(=O)Nc2ccc(CN3CCN(C(=O)c4cccc(C#N)c4)CC3)cc2)cc1	GAP50	binding, surface plasmon resonance		1:1 binding model		koff	1.76 s⁻¹
CC[C@@H](C)[C@@H](NC(=O)[C@@H](Cc1ccc(O)cc1)NC(=O)[C@H]1CCCN1C(=O)[C@@H](CCCNC(=N)N)NC(=O)[C@H](N)Cc1c[nH]cn1)C(=O)N[C@H](C)C(=O)N[C@H](Cc1c[nH]cn1)C(=O)N[C@H](CCCNC(=N)N)C(=O)N[C@@H](C(=O)N[C@H](Cc1ccc(O)cc1)C(=O)N[C@H](CO)C(=O)N[C@H](Cc1ccccc1)C(N)=O)C(C)C	Transferrin receptor protein 1 (Tfrc, Mus musculus, UniProt Q62351)	flow cytometry	B16	2 h, unit not given	baseline: 0 h	surface expression	0.852 and 0.974
Cc1ccc(C(=O)Nc2ccc3ccccc3c2)o1	Otop1 (Mus musculus, UniProt Q80VM9)	ion current, whole-cell voltage ramp		10 µM, added: Na+ bath solution		reversal potential	54 mV and 50.4 mV and 65 mV and 54.6 mV and 55.8 mV and 60.3 mV
C=CC(=O)N1CCC(COCC(=O)N2CCN(c3nc(-c4cnc(N)nc4C(F)F)nc(N4CCOC[C@@H]4C)n3)CC2)CC1	FLT3 (Homo sapiens, UniProt P36888, N841I)	KINOMEscan		1 µM		remaining binding	95%
CCCCCCCCC(=O)c1cc(O)c(O)c(O)c1	Nuclear receptor subfamily 4 group A member 2, LBD; with RXRα (Homo sapiens, UniProt P43354)	reporter gene, full-length heterodimer DR5 reporter		10 µM	baseline: vehicle	activation	1.1 fold
Cc1cc(Nc2nc(-c3ccccc3)nc3ccccc23)n[nH]1	TRPM8	antagonist	HEK293	5 µM	baseline: control	remaining activity	102 ± 2%
O=C1NC(=NO)NC(=O)C12CCc1ccccc12 (stereo not drawn)	GABA-A receptor; alpha-1/beta-3/gamma-2 (Homo sapiens, UniProt P14867+P18507+P28472)			300 µM		Emax	7%
NCc1ccc(C(F)(F)F)cc1	Maoa (Rattus norvegicus, UniProt P21396)	kcat/Km descending limb free E S, substrate		pH 6.5-9.5		pKa2	9.3 ± 0.1
O=c1cc(-c2ccc(O)c(O)c2)oc2cc(O[C@@H]3O[C@H](CO)[C@@H](O)[C@H](O)[C@H]3O)cc(O)c12	Heat shock protein HSP 90-alpha, N-terminal domain (HSP90AA1, Homo sapiens, UniProt P07900)	SPR, two-state model	N-terminal domain			koff	0.117 ± 0.104 s⁻¹
NC(=O)NOCCCCCCCCCC[P+](c1ccccc1)(c1ccccc1)c1ccccc1.O=C([O-])C(F)(F)F	NADH dehydrogenase [ubiquinone] iron-sulfur protein 7, mitochondrial/NADH dehydrogenase [ubiquinone] iron-sulfur protein 2, mitochondrial/MT-ND1	complex I-dependent respiration, Seahorse XF96	HCT-116	5 µM, 24 h	baseline: control	oxygen consumption rate	84.2 ± 7.55%
C#CCN(CCCN1CCN(C2CCCCC2)CC1)Cc1ccc(C(=O)c2ccc([N+](=O)[O-])cc2)cc1	TMEM97 (Homo sapiens, UniProt Q5BJF2)	radioligand binding	RT-4 cell membranes		baseline: sigma1 Ki over sigma2 Ki	Ki ratio	7.88
O=c1cc(N2CCOCC2)oc2c(-c3ccccc3)cccc12	TRPM8	antagonist	HEK293	5 µM	baseline: control	remaining activity	89.1 ± 9.62%
Nc1ncc2c(n1)-c1c([nH]c3ccc(-c4ccc(F)cc4)cc13)CCC2	MYLK4 (Homo sapiens, UniProt Q86YV6)	DiscoverX scanMAX		1 µM	baseline: untreated control	remaining binding	14%
O=c1cc(NCCc2ccccc2)[nH]c(=O)[nH]1	FFAR4	antagonist, β-arrestin recruitment	CHO cells	10 µM		inhibition	21 ± 9%
Cc1cc2c(c(=O)[nH]1)C(=O)O/C2=C\c1ccc(F)cc1OC(C)C	PDE1C isoform PDE1C2	enzyme activity, inhibitor		added: 3H-cGMP substrate		ligand efficiency	0.35
Cn1sc(=O)n(Cc2ccccc2)c1=O	TRPM8	antagonist	HEK293	5 µM	baseline: control	remaining activity	94.7 ± 6.31%
Nc1nc2c(ncn2[C@@H]2O[C@H](COP(=O)(O)O)[C@@H](O)[C@H]2O)c(=O)[nH]1	GUK1 (Homo sapiens, UniProt Q16774, Y81A)	enzyme activity, NADH-coupled		7.812 µM		reaction rate	1.05 s⁻¹ and 1.04 s⁻¹ and 0.692 s⁻¹
C=CC(=O)N1CCC[C@@H](n2nc(-c3ccc(Oc4ccccc4)cc3)c3c(N)ncnc32)C1	CDKL1 (Homo sapiens, UniProt Q00532)			0.1 µM		remaining activity	35.6%
O=[N+]([O-])c1cc(C(F)(F)F)ccc1NCc1ccco1	Endothelial PAS domain-containing protein 1, PAS-B domain (EPAS1, Homo sapiens, UniProt Q99814)	binding, ITC, reverse mode				ΔG	-8.04 ± 0.21 kcal/mol
COc1cc(Nc2ncc3c(n2)-c2ccc(Cl)cc2C(c2c(F)cccc2OC)=NC3)ccc1C(=O)O	MAP4K5	kinase activity		1 µM		remaining activity	110%

Structure (SMILES)	target	assay	test system	setting	scale	endpoint	value
CCCCCCCCCCNc1cc(=O)n(C)c(=O)[nH]1	FFAR4	antagonist, β-arrestin recruitment	CHO cells	10 µM		inhibition	15 ± 1%
CC[C@@H]1[C@H](F)C(=O)N[C@@H]1COc1nccc2cc(C(N)=O)c(OC)cc12	MAP3K11 (Homo sapiens, UniProt Q16584)	ATP-site probe binding, ActivX profiling, refers to: MLK3	THP-1 cell lysate	0.2 mM, Lys1 site		inhibition	5%
Cc1cc2c(c(=O)[nH]1)C(=O)O/C2=C\c1cc(Cl)ccc1OC(C)C	PDE1C isoform PDE1C2	enzyme activity, inhibitor		added: 3H-cGMP substrate		ligand efficiency	0.42
CCCCCCN(C)c1cc(=O)[nH]c(=O)[nH]1	FFAR4	agonist, β-arrestin recruitment	CHO cells	10 µM	baseline: 30 µM TUG-891	agonist effect	1%
CCNc1nc(C#N)nc(Nc2ccccc2)n1	3-oxoacyl-[acyl-carrier-protein] reductase FabG (fabG, Pseudomonas aeruginosa, UniProt O54438)	enzyme activity, inhibitor, NADPH fluorescence		reverse reaction, added: 3-OH-decanoyl-NAC, NADP		Hill slope	1.5
CC[C@H](C)[C@H](NC(=O)[C@H](C)NC(=O)[C@H](C)NC(=O)[C@@H](NC(=O)[C@H](CC(=O)O)NC(=O)[C@H](CS)NC(=O)[C@H](CC(C)C)NC(=O)[C@H](CCC(=O)O)NC(=O)[C@H](C)NC(=O)[C@H](CC(=O)O)NC(=O)[C@H](CO)NC(=O)[C@H](C)NC(=O)[C@H](CC(N)=O)NC(=O)[C@H](C)NC(=O)[C@H](CC(C)C)NC(=O)[C@H](C)NC(=O)[C@H](CCC(=O)O)NC(=O)[C@H](CCC(=O)O)NC(=O)[C@H](CC(C)C)NC(=O)[C@H](CCC(=O)O)NC(=O)[C@@H]1CCCN1C(=O)[C@H](CCC(=O)O)NC(=O)[C@H](CC(C)C)NC(=O)[C@@H](NC(=O)[C@@H](NC(=O)[C@@H](N)CO)C(C)C)[C@@H](C)O)[C@@H](C)CC)C(=O)N[C@@H](CC(C)C)C(=O)NCC(=O)N[C@@H](CCSC)C(=O)N[C@@H](Cc1c[nH]cn1)C(=O)N[C@H](C(=O)N[C@@H](CC(C)C)C(=O)N[C@@H](CCSC)C(=O)N[C@@H](CO)C(=O)N[C@@H](CC(N)=O)C(=O)N[C@@H](CCC(N)=O)C(=O)O)[C@@H](C)O	Tropomyosin alpha-1 chain (Tpm1, Rattus norvegicus, UniProt P04692)	complex unfolding, circular dichroism		40 µM each peptide, pH 7.0, WT peptide		melting temperature	31.3 ± 0.5 °C
COc1cccc(C(=O)NCc2ccc(CNS(=O)(=O)c3ccccc3)cc2)c1	CXCR4 (Homo sapiens, UniProt P61073)	binding, inhibitor, competitive binding	MDA-MB-231	added: biotinylated TN14003		EC	> 1000 nM
CCOc1ccc2c(C(F)(F)F)cc(=O)oc2c1	Cytochrome P450 2B4 (Oryctolagus cuniculus, UniProt P00178, F206A/H226Y)	O-deethylation, substrate			baseline: wild type over F206A	catalytic efficiency ratio	11 fold
O=C(CNc1cccc2c1C(=O)N(C1CCC(=O)NC1=O)C2=O)NCCCCCCN1CCc2c(c3ccccc3n2Cc2ccc(C(=O)NO)cc2)C1 (stereo not drawn)	HDAC10 (Homo sapiens, UniProt Q969S8)	degrader, western blot	MM1.S	1 µM, 24 h		degradation	93%
NC(=O)NO	NADH dehydrogenase [ubiquinone] iron-sulfur protein 7, mitochondrial/NADH dehydrogenase [ubiquinone] iron-sulfur protein 2, mitochondrial/MT-ND1	complex I-dependent respiration, Seahorse XF96	HCT-116	300 µM, 24 h	baseline: control	oxygen consumption rate	85.7 ± 3.16%
CNC(=O)[C@@H]1Cc2c([nH]c3cc(Cl)ccc23)C2(CCN(CCc3ccccc3)CC2)N1	GAP50	binding, surface plasmon resonance		1:1 binding model		kon	6220 M⁻¹ s⁻¹
NC(=O)NOCCCCCCCCCCCCCC[P+](c1ccccc1)(c1ccccc1)c1ccccc1.O=C([O-])C(F)(F)F	NADH dehydrogenase [ubiquinone] iron-sulfur protein 7, mitochondrial/NADH dehydrogenase [ubiquinone] iron-sulfur protein 2, mitochondrial/MT-ND1	complex I-dependent respiration, Seahorse XF96	HCT-116	0.5 µM, 24 h	baseline: control	oxygen consumption rate	64.3 ± 3.13%
O=c1nc(SCc2cc(F)cc(C(F)(F)F)c2)nc(SCc2ccc3sccc3c2)[nH]1	TOP2A	DNA relaxation		15.6 µM		mean relaxed DNA	47.5%
CCCCCCCCNc1cc(=O)[nH]c(=O)[nH]1	FFAR4	antagonist, β-arrestin recruitment	CHO cells	10 µM		inhibition	22 ± 9%
CCN(CCO)CCCC(C)Nc1ccnc2cc(Cl)ccc12 (stereo not drawn)	SCN5A (Homo sapiens, UniProt Q14524)	sodium current, whole-cell patch clamp		30 µM, without ATX-II		activation slope factor	2.85 mV/e-fold and 4.5 mV/e-fold and 1.66 mV/e-fold
Cc1cc2nc3[nH]c(=O)[nH]c(=O)c3nc2cc1C	T1, riboswitch RNA yjdF aptamer (Bacillus subtilis)	fluorescence titration		added: 380 nM lumichrome		Kd	360 nM
CO[C@H]1/C=C/O[C@@]2(C)Oc3c(C)c(O)c4c(O)c(c(/C=N/N5CCN(C)CC5)c(O)c4c3C2=O)NC(=O)/C(C)=C\C=C[C@H](C)[C@H](O)[C@@H](C)[C@@H](O)[C@@H](C)[C@H](OC(C)=O)[C@@H]1C	GAP50	binding, surface plasmon resonance		1:1 binding model		koff	0.00308 s⁻¹
O=c1nc(SCc2cc(F)cc(C(F)(F)F)c2)nc(SCc2csc3ccc(Cl)cc23)[nH]1	TOP2A	decatenation		1.95 µM		mean decatenated DNA	39.1%
CCCCCCCCCNc1cc(=O)[nH]c(=O)[nH]1	FFAR4	antagonist, β-arrestin recruitment	CHO cells	10 µM		inhibition	26 ± 2%
NC(=O)NOCCCCCCCCCCCCCCCCCCCC[P+](c1ccccc1)(c1ccccc1)c1ccccc1.O=C([O-])C(F)(F)F	NADH dehydrogenase [ubiquinone] iron-sulfur protein 7, mitochondrial/NADH dehydrogenase [ubiquinone] iron-sulfur protein 2, mitochondrial/MT-ND1	complex I-dependent respiration, Seahorse XF96	HCT-116	10 µM, 24 h	baseline: control	oxygen consumption rate	0 ± 1.43%
NCCCS(=O)(=O)O	SLC6A6 (Homo sapiens, UniProt P31641, G62A)	binding, microscale thermophoresis		122 nM, room temperature, added: 50 nM labelled protein	higher = more binding	normalised MST signal	0.0811

A few entries again:
Structure (SMILES)	target	assay	test system	setting	scale	endpoint	value
COc1cc(Nc2ncc3c(n2)-c2ccc(Cl)cc2C(c2c(F)cccc2OC)=NC3)ccc1C(=O)O	MAP4K5	kinase activity		1 µM		remaining activity	110%
CCCCCCCCCCNc1cc(=O)n(C)c(=O)[nH]1	FFAR4	antagonist, β-arrestin recruitment	CHO cells	10 µM		inhibition	15 ± 1%
CC[C@@H]1[C@H](F)C(=O)N[C@@H]1COc1nccc2cc(C(N)=O)c(OC)cc12	MAP3K11 (Homo sapiens, UniProt Q16584)	ATP-site probe binding, ActivX profiling, refers to: MLK3	THP-1 cell lysate	0.2 mM, Lys1 site		inhibition	5%
Cc1cc2c(c(=O)[nH]1)C(=O)O/C2=C\c1cc(Cl)ccc1OC(C)C	PDE1C isoform PDE1C2	enzyme activity, inhibitor		added: 3H-cGMP substrate		ligand efficiency	0.42
CCCCCCN(C)c1cc(=O)[nH]c(=O)[nH]1	FFAR4	agonist, β-arrestin recruitment	CHO cells	10 µM	baseline: 30 µM TUG-891	agonist effect	1%
